{"data": "Published values from different studies", "note": "A part holds a random share of what one study measured. Changes are numbered by the printed parent chain."}
{"data": "Block 1", "target": "Histone acetyltransferase KAT6A, winged helix 2, GST fusion (KAT6A, Homo sapiens, UniProt Q92794, residues 85-181)", "method": "protein binding microarray", "molecule type": "double-stranded DNA, one strand shown", "sample": "in vitro", "concentration": "not given", "notes": "8-mer, flanks averaged, mean of 2 arrays, mostly near background", "relative to": "not given", "reading": "higher = stronger binding", "Construct (chain)": "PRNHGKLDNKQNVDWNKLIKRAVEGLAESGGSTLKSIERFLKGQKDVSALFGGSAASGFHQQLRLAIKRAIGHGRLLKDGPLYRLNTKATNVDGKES"}
{"Oligonucleotide": "ACAGAACC", "E-score": -0.0368}
{"Oligonucleotide": "ACATTAGT", "E-score": -0.22}
{"Oligonucleotide": "ACATGGCT", "E-score": -0.212}
{"Oligonucleotide": "AGGACTTC", "E-score": 0.00185}
{"Oligonucleotide": "CACCAATA", "E-score": -0.0476}
{"Oligonucleotide": "ATTATTCG", "E-score": 0.0735}
{"Oligonucleotide": "CCGGTCGA", "E-score": 0.0295}
{"Oligonucleotide": "ACACGTGG", "E-score": -0.144}
{"data": "Block 2", "target": "UDP-N-acetylglucosamine--peptide N-acetylglucosaminyltransferase 110 kDa subunit (OGT, Homo sapiens, UniProt O15294)", "observed": "binding", "method": "phage display NGS", "molecule type": "peptide", "relative to": "input library", "chain of UniProt O15294 (whole entry, looked up)": "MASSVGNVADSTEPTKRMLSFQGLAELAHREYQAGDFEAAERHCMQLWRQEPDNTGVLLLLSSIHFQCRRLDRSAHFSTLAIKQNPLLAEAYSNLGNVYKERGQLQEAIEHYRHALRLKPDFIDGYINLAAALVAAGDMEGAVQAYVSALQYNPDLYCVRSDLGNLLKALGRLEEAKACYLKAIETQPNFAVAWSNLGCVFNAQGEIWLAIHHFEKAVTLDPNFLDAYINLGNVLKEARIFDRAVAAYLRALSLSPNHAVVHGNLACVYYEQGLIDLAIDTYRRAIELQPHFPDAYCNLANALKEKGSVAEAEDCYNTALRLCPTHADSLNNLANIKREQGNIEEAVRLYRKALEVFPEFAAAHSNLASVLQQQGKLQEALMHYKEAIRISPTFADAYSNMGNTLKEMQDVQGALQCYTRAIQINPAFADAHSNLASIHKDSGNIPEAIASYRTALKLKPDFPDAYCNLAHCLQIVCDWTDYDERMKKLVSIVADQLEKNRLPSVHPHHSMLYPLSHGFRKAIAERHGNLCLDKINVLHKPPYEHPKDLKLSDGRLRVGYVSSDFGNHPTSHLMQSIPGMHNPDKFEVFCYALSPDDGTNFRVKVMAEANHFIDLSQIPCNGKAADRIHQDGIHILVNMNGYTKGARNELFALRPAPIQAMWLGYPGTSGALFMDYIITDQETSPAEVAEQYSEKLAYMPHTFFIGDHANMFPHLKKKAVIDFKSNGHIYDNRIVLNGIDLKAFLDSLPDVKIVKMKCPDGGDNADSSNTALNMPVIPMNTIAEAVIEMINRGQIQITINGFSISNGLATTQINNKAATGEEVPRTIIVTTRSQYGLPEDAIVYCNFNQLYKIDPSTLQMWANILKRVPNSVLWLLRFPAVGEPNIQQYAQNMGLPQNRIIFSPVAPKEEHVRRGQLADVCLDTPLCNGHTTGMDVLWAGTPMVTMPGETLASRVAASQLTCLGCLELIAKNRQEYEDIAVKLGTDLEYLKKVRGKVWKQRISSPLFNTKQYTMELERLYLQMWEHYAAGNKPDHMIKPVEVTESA"}
{"Sequence": "YMVDTHHKHHQHPVF", "minimum log2 enrichment ratio": 1.92}
{"Sequence": "QWQLFPPKYMIITT", "minimum log2 enrichment ratio": 4.79}
{"Sequence": "QFQSRYRPFYQINVV", "minimum log2 enrichment ratio": 3.46}
{"Sequence": "ATRETEPAYQIVYTK", "minimum log2 enrichment ratio": 1.7}
{"Sequence": "NHAHYATDSHTHNHQ", "minimum log2 enrichment ratio": 2.3}
{"Sequence": "TPYPPYYPIVYMRT", "minimum log2 enrichment ratio": 2.15}
{"Sequence": "QNLEFFPKYQLVTR", "minimum log2 enrichment ratio": 2.06}
{"Sequence": "YLPQYQIIPKAVDYS", "minimum log2 enrichment ratio": 4.47}
{"Sequence": "DDTGPFQPMYQIQII", "minimum log2 enrichment ratio": 5.77}
{"data": "Block 3", "target": "CCNF, cyclin fold, Cln2 fusion (human)", "method": "yeast growth competition, sequencing", "sample": "yeast", "notes": "strong parent motif", "relative to": "not given", "reading": "higher = stronger binding", "starting sequence": "viral docking peptide; TSVRRALFTGGSD; partner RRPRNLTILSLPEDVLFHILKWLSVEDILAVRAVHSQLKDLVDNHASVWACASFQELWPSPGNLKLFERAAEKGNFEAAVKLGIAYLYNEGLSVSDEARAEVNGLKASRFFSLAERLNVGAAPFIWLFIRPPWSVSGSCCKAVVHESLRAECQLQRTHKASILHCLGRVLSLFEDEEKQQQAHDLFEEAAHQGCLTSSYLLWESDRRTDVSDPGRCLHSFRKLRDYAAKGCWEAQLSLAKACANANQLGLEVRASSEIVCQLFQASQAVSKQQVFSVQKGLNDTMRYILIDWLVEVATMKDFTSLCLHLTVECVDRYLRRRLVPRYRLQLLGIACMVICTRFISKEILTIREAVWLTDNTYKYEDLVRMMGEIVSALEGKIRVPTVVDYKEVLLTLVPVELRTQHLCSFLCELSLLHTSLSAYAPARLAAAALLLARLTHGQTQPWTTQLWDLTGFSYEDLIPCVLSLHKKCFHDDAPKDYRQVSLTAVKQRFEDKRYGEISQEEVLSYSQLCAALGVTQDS"}
{"Substitution": "V3D", "normalised enrichment score": -0.0158}
{"Substitution": "S12Q", "normalised enrichment score": 8.47}
{"Substitution": "R5E", "normalised enrichment score": 0.108}
{"Substitution": "G11W", "normalised enrichment score": 8.8}
{"Substitution": "G10S", "normalised enrichment score": 8.3}
{"Substitution": "R5N", "normalised enrichment score": 0.232}
{"Substitution": "A6K", "normalised enrichment score": 8.62}
{"data": "Block 4", "target": "inorganic phosphate, free oxyanion", "method": "microfluidic competitive inhibition", "sample": "in vitro, cell-free expressed", "concentration": "not given", "notes": "derived from inhibition constants, unchanged parent 615000 nM", "reading": "lower = stronger binding", "starting sequence": "PafA, mature enzyme, eGFP fusion (Elizabethkingia meningoseptica, UniProt Q9KJX5); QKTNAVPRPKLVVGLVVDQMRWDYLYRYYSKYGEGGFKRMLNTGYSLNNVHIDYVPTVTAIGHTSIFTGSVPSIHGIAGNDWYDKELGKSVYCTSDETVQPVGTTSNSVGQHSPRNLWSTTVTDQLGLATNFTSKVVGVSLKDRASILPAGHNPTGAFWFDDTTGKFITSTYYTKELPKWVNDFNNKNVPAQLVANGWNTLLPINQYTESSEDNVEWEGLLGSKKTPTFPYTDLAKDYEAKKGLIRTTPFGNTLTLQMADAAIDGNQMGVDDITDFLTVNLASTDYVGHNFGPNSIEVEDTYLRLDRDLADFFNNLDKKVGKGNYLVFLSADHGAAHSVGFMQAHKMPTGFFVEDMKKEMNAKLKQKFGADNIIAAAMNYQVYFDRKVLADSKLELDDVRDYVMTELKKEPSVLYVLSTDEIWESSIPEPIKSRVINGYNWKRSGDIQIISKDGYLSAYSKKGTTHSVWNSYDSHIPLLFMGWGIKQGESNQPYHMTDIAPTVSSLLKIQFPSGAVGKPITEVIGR"}
{"Substitution": "D81V", "phosphate dissociation constant [µM]": 994}
{"Substitution": "V17A", "phosphate dissociation constant [µM]": 717}
{"Substitution": "G488V", "phosphate dissociation constant [µM]": 500}
{"Substitution": "R400V", "phosphate dissociation constant [µM]": 736}
{"Substitution": "R434V", "phosphate dissociation constant [µM]": 356}
{"note": "For quick reference, copied from above (block 1):"}
{"Oligonucleotide": "ACATTAGT", "E-score": -0.22}
{"Oligonucleotide": "ACATGGCT", "E-score": -0.212}
{"Oligonucleotide": "AGGACTTC", "E-score": 0.00185}
